Experimental data from different studies.
Protocols differ between the studies behind these lines. Several values in a cell are separate wells, animals, samples, runs or records. ± marks the error that the study gave.
SYK SH2 domains: Tyrosine-protein kinase SYK, SH2 domains (SYK, Homo sapiens, UniProt P43405)
ABL2 SH2 domain: Tyrosine-protein kinase ABL2, SH2 domain (ABL2, Homo sapiens, UniProt P42684)
Chain of UniProt P42684 (whole entry, looked up): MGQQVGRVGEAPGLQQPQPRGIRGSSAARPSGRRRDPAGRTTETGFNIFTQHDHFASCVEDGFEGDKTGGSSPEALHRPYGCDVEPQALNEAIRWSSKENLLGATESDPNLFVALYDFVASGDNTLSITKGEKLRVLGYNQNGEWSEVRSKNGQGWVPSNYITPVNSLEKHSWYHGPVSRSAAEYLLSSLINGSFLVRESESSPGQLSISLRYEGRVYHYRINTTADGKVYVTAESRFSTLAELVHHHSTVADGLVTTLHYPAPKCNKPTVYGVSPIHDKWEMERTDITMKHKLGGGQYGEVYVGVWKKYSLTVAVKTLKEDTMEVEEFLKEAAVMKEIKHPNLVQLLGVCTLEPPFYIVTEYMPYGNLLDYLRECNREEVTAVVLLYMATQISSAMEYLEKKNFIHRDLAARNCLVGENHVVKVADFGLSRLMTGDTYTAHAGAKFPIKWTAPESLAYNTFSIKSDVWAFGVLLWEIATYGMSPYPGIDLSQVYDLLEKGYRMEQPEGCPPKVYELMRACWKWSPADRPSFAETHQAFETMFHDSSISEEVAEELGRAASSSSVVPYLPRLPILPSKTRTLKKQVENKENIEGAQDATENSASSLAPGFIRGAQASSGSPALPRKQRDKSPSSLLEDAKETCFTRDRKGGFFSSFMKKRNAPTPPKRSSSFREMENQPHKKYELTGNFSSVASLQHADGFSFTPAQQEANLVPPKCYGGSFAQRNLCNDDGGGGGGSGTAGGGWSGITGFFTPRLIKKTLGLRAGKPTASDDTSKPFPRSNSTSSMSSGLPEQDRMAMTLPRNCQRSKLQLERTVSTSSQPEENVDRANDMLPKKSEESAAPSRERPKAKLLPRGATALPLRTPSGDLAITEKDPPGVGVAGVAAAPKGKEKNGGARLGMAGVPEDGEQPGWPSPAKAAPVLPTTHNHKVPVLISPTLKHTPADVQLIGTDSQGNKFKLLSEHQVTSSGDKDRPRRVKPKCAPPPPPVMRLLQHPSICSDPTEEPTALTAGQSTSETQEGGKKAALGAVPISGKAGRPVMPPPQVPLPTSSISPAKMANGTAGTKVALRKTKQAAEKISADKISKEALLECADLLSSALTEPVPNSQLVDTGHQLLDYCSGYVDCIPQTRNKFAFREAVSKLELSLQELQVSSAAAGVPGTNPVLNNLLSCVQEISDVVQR
Chain of UniProt Q70EK9 (whole entry, looked up): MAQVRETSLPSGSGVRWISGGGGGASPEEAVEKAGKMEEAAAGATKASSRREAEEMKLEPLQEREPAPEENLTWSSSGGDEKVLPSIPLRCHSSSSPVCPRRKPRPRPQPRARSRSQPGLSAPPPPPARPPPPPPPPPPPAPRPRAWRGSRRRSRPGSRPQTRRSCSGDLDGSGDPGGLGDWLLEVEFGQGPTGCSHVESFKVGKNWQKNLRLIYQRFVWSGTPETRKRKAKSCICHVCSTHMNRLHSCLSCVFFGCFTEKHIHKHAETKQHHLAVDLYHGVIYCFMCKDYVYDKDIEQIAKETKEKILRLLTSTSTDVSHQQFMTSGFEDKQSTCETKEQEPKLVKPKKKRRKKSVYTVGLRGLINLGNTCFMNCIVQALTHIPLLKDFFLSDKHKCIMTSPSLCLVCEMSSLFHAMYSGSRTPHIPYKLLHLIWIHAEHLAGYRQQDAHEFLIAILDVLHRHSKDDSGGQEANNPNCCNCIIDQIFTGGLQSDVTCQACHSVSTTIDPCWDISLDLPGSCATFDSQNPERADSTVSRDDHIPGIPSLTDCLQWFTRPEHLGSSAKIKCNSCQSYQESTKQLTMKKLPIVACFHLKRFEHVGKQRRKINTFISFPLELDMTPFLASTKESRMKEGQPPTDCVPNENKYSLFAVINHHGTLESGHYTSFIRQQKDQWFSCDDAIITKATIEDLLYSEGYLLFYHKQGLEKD
Chain of UniProt Q15131 (whole entry, looked up): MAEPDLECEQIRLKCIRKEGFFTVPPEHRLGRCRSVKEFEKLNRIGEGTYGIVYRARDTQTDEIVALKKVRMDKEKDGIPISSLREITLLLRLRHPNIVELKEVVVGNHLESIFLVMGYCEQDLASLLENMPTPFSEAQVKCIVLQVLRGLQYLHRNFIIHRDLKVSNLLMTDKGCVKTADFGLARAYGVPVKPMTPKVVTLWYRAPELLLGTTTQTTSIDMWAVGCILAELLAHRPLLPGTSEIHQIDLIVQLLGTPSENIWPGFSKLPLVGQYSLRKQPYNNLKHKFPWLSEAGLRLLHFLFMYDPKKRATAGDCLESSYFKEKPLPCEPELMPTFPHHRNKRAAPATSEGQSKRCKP
Chain of UniProt O75815 (whole entry, looked up): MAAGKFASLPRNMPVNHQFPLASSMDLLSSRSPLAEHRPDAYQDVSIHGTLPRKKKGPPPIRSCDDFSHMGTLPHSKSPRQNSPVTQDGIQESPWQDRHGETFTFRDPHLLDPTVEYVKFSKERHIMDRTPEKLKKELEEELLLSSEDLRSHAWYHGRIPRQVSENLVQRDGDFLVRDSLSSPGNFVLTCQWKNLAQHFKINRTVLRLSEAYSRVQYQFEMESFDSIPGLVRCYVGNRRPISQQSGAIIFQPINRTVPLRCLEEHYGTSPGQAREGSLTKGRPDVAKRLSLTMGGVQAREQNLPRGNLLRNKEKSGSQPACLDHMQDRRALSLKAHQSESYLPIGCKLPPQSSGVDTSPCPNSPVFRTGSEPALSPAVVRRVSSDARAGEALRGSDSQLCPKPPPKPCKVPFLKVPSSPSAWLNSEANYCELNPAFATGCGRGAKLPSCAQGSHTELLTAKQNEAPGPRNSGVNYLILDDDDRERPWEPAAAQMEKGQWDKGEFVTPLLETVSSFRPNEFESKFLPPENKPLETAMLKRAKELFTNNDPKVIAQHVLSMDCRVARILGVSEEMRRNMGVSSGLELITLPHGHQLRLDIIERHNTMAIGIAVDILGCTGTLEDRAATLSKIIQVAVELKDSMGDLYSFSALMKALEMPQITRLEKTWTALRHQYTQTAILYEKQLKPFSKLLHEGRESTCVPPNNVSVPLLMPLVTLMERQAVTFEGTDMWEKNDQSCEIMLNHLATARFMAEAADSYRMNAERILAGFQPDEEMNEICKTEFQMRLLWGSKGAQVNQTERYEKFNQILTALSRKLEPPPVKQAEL
Chain of UniProt P05046 (whole entry, looked up): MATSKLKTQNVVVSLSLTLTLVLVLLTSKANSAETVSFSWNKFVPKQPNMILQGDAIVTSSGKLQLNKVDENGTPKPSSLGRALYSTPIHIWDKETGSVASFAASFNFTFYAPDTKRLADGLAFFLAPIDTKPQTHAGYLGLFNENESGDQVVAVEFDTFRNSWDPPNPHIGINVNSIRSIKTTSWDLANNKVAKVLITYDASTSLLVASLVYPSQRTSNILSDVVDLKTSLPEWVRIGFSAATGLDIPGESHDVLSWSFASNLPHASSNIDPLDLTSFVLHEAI

O=C(CCCOc1ccc(Cl)cc1)NC1CCOC1=O (stereo not drawn)
Kd (qscR, DNA-bound (Pseudomonas aeruginosa, UniProt G3XD77); DNA binding, ligand, EMSA; 4 °C, saturating ligand): 0.0079 µM

N=C(N)NCCC[C@H](N)C(=O)O
Kd (uncharacterized protein (Pelagibacter ubique, UniProt Q4FLC2); isothermal titration calorimetry; Candidatus Pelagibacter ubique; displacement titration, added: octopine competitor 1 mM): 0.000105 µM and 4.03e-05 µM and 6.67e-05 µM and 8.07e-05 µM

CC[C@H](C)[C@H](NC(=O)[C@H](CC(=O)O)NC(=O)[C@H](C)NC(=O)[C@H](Cc1ccc(OP(=O)(O)O)cc1)NC(=O)[C@H](CCCCN)NC(=O)[C@@H](NC(=O)[C@H](CC(=O)O)NC(=O)CNC(=O)[C@H](CCCCN)NC(=O)[C@H](CCSC)NC(=O)[C@H](CC(=O)O)NC(=O)[C@H](CC(C)C)NC(=O)[C@H](CCSC)NC(=O)c1ccc2c(c1)C(=O)OC21c2ccc(N(C)C)cc2Oc2cc(N(C)C)ccc21)C(C)C)C(=O)N[C@@H](CCC(=O)O)C(=O)N[C@@H](CO)C(=O)N[C@@H](CO)C(=O)N[C@@H](CC(N)=O)C(=O)N[C@@H](CC(=O)O)C(=O)O
Kd (SYK SH2 domains; binding): 0.458 µM

O=C(O)CNC(=O)c1cccnc1
Kd (Ubiquitin carboxyl-terminal hydrolase 51, ZnF-UBD domain (USP51, Homo sapiens, UniProt Q70EK9)): > 1000 µM

N=C(N)N
Kd (Gdx-Clo mutant A60T/A67I/K101N; tryptophan fluorescence; from pH dependence fit): 88 µM

CC(C)C[C@H](NC(=O)[C@H](Cc1ccc(OP(=O)(O)O)cc1)NC(=O)[C@H](CCC(=O)O)NC(=O)[C@@H]1CCCN1C(=O)[C@H](CC(N)=O)NC(=O)CNC(=O)[C@@H](NC(=O)[C@H](C)NC(=O)[C@@H](NC(=O)[C@H](CO)NC(=O)[C@H](Cc1c[nH]cn1)NC(=O)c1ccc2c(c1)C(=O)OC21c2ccc(N(C)C)cc2Oc2cc(N(C)C)ccc21)[C@@H](C)O)C(C)C)C(=O)N[C@@H](CC(N)=O)C(=O)N[C@H](C(=O)N[C@H](C(=O)N[C@@H](CCC(N)=O)C(=O)N1CCC[C@H]1C(=O)N[C@H](C(=O)N[C@@H](CC(=O)O)C(=O)O)[C@@H](C)O)C(C)C)[C@@H](C)O
Kd (ABL2 SH2 domain; binding): 0.12 µM

CN(CC(=O)O)C(=N)NP(=O)(O)O
Kd (CKMT1A (Homo sapiens, UniProt P12532, E265Q); microscale thermophoresis; pH 8.5, added: ADP 1 mM): 13 ± 2 µM

CC(C)C[C@H](NC(=O)[C@H](CO)NC(=O)[C@H](CO)NC(=O)CNC(=O)[C@@H]1CCCN1C(=O)[C@H](Cc1ccc(O)cc1)NC(=O)[C@H](CC(C)C)NC(=O)[C@H](CO)NC(=O)[C@H](CS)NC(=O)[C@H](CC(C)C)NC(=O)[C@@H](N)CC(C)C)C(=O)O
Kd (Epidermal growth factor receptor, extracellular domain (EGFR, Homo sapiens, UniProt P00533); binding, second site, surface plasmon resonance; immobilised soluble EGFR; 25 °C, model, binding, one to two): 5.9 µM

O=C(O)c1nccnc1NC(=O)c1cccc2ccccc12
Kd (panD (Mycobacteroides abscessus, UniProt B1MGV7); isothermal titration calorimetry): 143 ± 5.6 µM

C[C@H](O)[C@H](O)c1cnc2[nH]c(N)nc(=O)c2n1
Kd (Phenylalanine-4-hydroxylase (phhA, Chromobacterium violaceum, UniProt P30967)): 55.2 ± 11.9 µM

CSCC[C@H](NC(=O)[C@H](CC(C)C)NC(=O)[C@H](C)NC(=O)[C@H](CCCNC(=N)N)NC(=O)[C@H](Cc1ccc(OP(=O)(O)O)cc1)NC(=O)[C@H](Cc1ccccc1)NC(=O)[C@H](CC(N)=O)NC(=O)[C@H](CO)NC(=O)[C@H](CC(=O)O)NC(=O)[C@@H](NC(=O)[C@@H]1CCCN1C(=O)[C@H](CO)NC(=O)[C@@H]1CCCN1C(=O)[C@H](CC(C)C)NC(=O)c1ccc2c(c1)C(=O)OC21c2ccc(N(C)C)cc2Oc2cc(N(C)C)ccc21)[C@@H](C)O)C(=O)N[C@@H](CC(=O)O)C(=O)N[C@@H](CCC(=O)O)C(=O)N[C@@H](CCC(=O)O)C(=O)N[C@@H](CC(=O)O)C(=O)O
Kd (ABL2 SH2 domain; binding): 1.5 µM

Nc1nc2c(ncn2[C@@H]2O[C@H](COP(=O)(O)OP(=O)(O)OP(=O)(O)O)[C@@H](O)[C@H]2O)c(=O)[nH]1
Kd (GTP 3',8-cyclase (moaA, Staphylococcus aureus, UniProt P69848, R17K); binding, isothermal titration calorimetry; 25 °C, R17K mutant, anaerobic): 0.68 ± 0.28 µM

CC(C)C[C@H](NC(=O)[C@@H](NC(=O)[C@H](CO)NC(=O)[C@H](CO)NC(=O)[C@@H](NC(=O)[C@H](CC(=O)O)NC(=O)[C@H](CC(C)C)NC(=O)[C@@H]1CCCN1C(=O)[C@H](CO)NC(=O)c1ccc2c(c1)C(=O)OC21c2ccc(N(C)C)cc2Oc2cc(N(C)C)ccc21)[C@@H](C)O)C(C)C)C(=O)N[C@@H](Cc1ccc(OP(=O)(O)O)cc1)C(=O)N[C@H](C(=O)N[C@@H](C)C(=O)N[C@H](C(=O)N[C@@H](CCC(N)=O)C(=O)N1CCC[C@H]1C(=O)N[C@@H](CC(N)=O)C(=O)N[C@@H](CCC(=O)O)C(=O)N[C@@H](CC(=O)O)C(=O)O)C(C)C)[C@@H](C)O
Kd (Breast cancer anti-estrogen resistance protein 3, SH2 domain (BCAR3, Homo sapiens, UniProt O75815); binding): 1.64 µM

CC(=O)N[C@H]1[C@@H](OC[C@H](NC(C)=O)C(=O)N[C@@H](CO[C@H]2O[C@H](CO)[C@H](O)[C@H](O)[C@H]2NC(C)=O)C(=O)N[C@@H](CO[C@H]2O[C@H](CO)[C@H](O)[C@H](O)[C@H]2NC(C)=O)C(=O)NCC(=O)O)O[C@H](CO)[C@H](O)[C@@H]1O
Kd (LE1 (Glycine max, UniProt P05046); glycan microarray; 3 glycans per BSA): 0.044 ± 0.021 µM

CCCCCCCCCC(=O)NC1CCCC1
Kd (qscR, ligand-binding domain (Pseudomonas aeruginosa, UniProt G3XD77); ligand binding, FRET displacement; ligand-binding domain): 0.0648 µM

CC[C@H](CO)Nc1nc(NCc2ccc(-c3ccccn3)cc2)c2ncn(C(C)C)c2n1
Kd (CDK10 (Homo sapiens, UniProt Q15131); binding, competition affinity chromatography; SH-SY5Y cell extract): 3.05 µM

CC[C@H](C)[C@H](NC(=O)[C@H](CC(=O)O)NC(=O)[C@H](Cc1ccccc1)NC(=O)[C@@H](NC(=O)[C@H](CC(N)=O)NC(=O)[C@@H](NC(=O)[C@H](CC(=O)O)NC(=O)c1ccc2c(c1)C(=O)OC21c2ccc(N(C)C)cc2Oc2cc(N(C)C)ccc21)C(C)C)[C@@H](C)O)C(=O)N[C@H](C(=O)N[C@H](C(=O)N[C@@H](Cc1ccc(OP(=O)(O)O)cc1)C(=O)N[C@@H](CC(C)C)C(=O)N[C@@H](CC(C)C)C(=O)N[C@@H](CCC(N)=O)C(=O)NCC(=O)N[C@@H](CCCNC(=N)N)C(=O)N[C@@H](CCCNC(=N)N)C(=O)N[C@@H](CC(C)C)C(=O)N[C@@H](CC(=O)O)C(=O)O)C(C)C)[C@@H](C)O
Kd (SYK SH2 domains; binding): 0.162 µM

CC(=O)N[C@H]1[C@@H](O[C@H]2[C@@H](O)[C@@H](CO)OC(O)[C@@H]2NC(C)=O)O[C@H](CO)[C@H](O)[C@@H]1O (stereo partly drawn)
Kd (Vicia villosa lectin; binding; 2 h): > 0.342 µM

A few entries again:
CC(C)C[C@H](NC(=O)[C@@H](NC(=O)[C@H](CO)NC(=O)[C@H](CO)NC(=O)[C@@H](NC(=O)[C@H](CC(=O)O)NC(=O)[C@H](CC(C)C)NC(=O)[C@@H]1CCCN1C(=O)[C@H](CO)NC(=O)c1ccc2c(c1)C(=O)OC21c2ccc(N(C)C)cc2Oc2cc(N(C)C)ccc21)[C@@H](C)O)C(C)C)C(=O)N[C@@H](Cc1ccc(OP(=O)(O)O)cc1)C(=O)N[C@H](C(=O)N[C@@H](C)C(=O)N[C@H](C(=O)N[C@@H](CCC(N)=O)C(=O)N1CCC[C@H]1C(=O)N[C@@H](CC(N)=O)C(=O)N[C@@H](CCC(=O)O)C(=O)N[C@@H](CC(=O)O)C(=O)O)C(C)C)[C@@H](C)O
Kd (Breast cancer anti-estrogen resistance protein 3, SH2 domain (BCAR3, Homo sapiens, UniProt O75815); binding): 1.64 µM
